Results collected from several papers.
Every numbered part comes from another study and shows a few of its results, in no order.

Series 1
Target: Centromere-binding protein 1, full length, N-terminal tag (CBF1, Saccharomyces cerevisiae, UniProt P17106, residues 1-351)
Sequence of UniProt P17106 (whole entry, looked up): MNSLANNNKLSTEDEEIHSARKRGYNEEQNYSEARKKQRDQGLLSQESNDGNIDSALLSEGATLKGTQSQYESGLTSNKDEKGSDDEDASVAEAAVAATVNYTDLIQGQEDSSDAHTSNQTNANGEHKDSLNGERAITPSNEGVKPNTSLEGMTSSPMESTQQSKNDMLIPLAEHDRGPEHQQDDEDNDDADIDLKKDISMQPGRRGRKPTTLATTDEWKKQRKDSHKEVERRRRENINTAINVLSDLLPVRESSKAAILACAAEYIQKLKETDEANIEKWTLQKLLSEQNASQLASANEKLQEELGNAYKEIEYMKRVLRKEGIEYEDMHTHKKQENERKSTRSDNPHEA
Method: protein-binding microarray
Form: double-stranded DNA, one strand shown
Medium: in vitro
Concentration: 0.8 µM
Notes: whole 60-bp probe, no competitor
Reading: higher = stronger binding
Strand | fluorescence intensity [a.u.]
CTAACGTGAAATGTGCACGGGGAAATGATCGCCTTCGTCTTGATTCGCTTGACGCTGCTG | 659
GAAGGATTGCAAGGGCACGCTAGTTGGATGTGCTAGGTCTTGATTCGCTTGACGCTGCTG | 510
CTAACGGTGAACTGTCACGAGAACCCTTACTTGTTCGTCTTGATTCGCTTGACGCTGCTG | 980
CTACATTTCCATCTTCACGCAATCGTCCGGGCATTCGTCTTGATTCGCTTGACGCTGCTG | 546

Series 2
Target: Prothrombin, mature alpha-thrombin (F2, Homo sapiens, UniProt P00734)
Method: aptamer microarray, sandwich
Form: DNA with 2'F-ANA
Medium: in vitro
Concentration: 200 nM
Notes: whole 15-mer aptamer, many near background
With: Cy3 exosite-II aptamer, 400 nM
Reading: higher = stronger binding
Strand | mean fluorescence intensity
GGTTGGTGTGGTTGG (2'F-ANA at 3 4 5 6 8 10 12 13 14 15) | 57.2 a.u.
GGTTGGTGTGGTTGG (2'F-ANA at 1 3 4 6 7 10 11 12 14) | 52.2 a.u.
GGTTGGTGTGGTTGG (2'F-ANA at 3 4 7 8 9 11 15) | 640 a.u.
GGTTGGTGTGGTTGG (2'F-ANA at 2 3 4 5 6 9 10 11 13) | 62.6 a.u.

Series 3
Target: Interferon regulatory factor 7, full length, phosphomimetic (IRF7, Homo sapiens, UniProt Q92985, residues 1-503, S101K/S471D/S472D/S475D/S476D/S477D/S483D/S484D/S487D)
Method: protein-binding microarray
Form: double-stranded DNA, one strand shown
Medium: in vitro
Concentration: 250 nM
Notes: 60-bp whole probe
With: salmon DNA 0.4 mg/ml
Reference: random background probes
Reading: higher = stronger binding
All sequences stand within: GCCTAGCAC … GTCTTGATTCGCTTGACGCTGCTG
Residues (chain): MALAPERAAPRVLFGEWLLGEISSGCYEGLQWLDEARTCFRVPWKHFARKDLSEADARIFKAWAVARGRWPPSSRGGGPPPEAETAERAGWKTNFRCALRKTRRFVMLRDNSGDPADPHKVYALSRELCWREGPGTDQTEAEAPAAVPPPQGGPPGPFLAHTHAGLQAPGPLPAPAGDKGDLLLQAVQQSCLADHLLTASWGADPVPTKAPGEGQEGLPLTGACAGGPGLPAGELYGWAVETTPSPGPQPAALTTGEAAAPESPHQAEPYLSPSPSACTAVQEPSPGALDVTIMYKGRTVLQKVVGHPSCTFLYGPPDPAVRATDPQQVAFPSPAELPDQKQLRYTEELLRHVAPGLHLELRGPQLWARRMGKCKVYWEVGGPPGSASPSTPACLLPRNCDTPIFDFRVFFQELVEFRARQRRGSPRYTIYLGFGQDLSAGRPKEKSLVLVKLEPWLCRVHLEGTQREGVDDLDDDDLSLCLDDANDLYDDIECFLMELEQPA
Strand | log fluorescence [z-score]
GACGGTTTCCTACTGCCGACGTGCTAG | 1.79
TCACACTTGTGTTTGGGACTGTGCTAG | -0.207
TTAGCTTTCAGTCTCGATTAGTGCTAG | 1.19
TTAGATTTCTGGACTGGATTAGTGCTA | 0.00339
TGAAGTTTTAATAACACAGAGTGCTAG | -0.356

Other studies, line by line
Molecule | target | assay | test system | conditions | scale | measurement | result
PhoQ, residues 284 288 289 292 302 303 DDMDFR | PhoP, residues 12 14 15 18 19 IFFTR (Escherichia coli, UniProt P23836) | Sort-seq, item: YFP reporter | E. coli | PhoQ-PhoP variant library, with: 10 µM Mg2+ | reference: high Mg2+ state, higher = stronger signaling | fold induction | 0.573
